Measurements from different studies.
Protocols differ between the studies behind these lines. Several values in a cell are separate wells, animals, samples, runs or records. ± marks the error that the study gave.
Cell line: HeLa

SMILES | assay | conditions | measurement | value
COc1ccc(/C=C/c2nc(N)[nH]c(=O)c2Br)cc1OC | cell morphology alteration | – | minimum cytotoxic concentration | > 100 µM
C[C@@H]1O[C@@H](O[C@H]2C[C@@H](O)[C@]3(CO)[C@H]4[C@H](O)C[C@]5(C)[C@@H](C6=CC(=O)OC6)CC[C@]5(O)[C@@H]4CC[C@]3(O)C2)[C@H](O)[C@H](O)[C@H]1O | ATP content | 25 µM, 6 h | cytotoxicity | not toxic
C#CCCCOc1c2c(c(-c3ccc4c(c3)OCO4)c3cc(OC)c(OC)cc13)C(=O)OC2 | – | 24 h | CC50 | 36.5 ± 7.13 µM
O=C(NCCCNc1nc(Nc2cccc(NC(=O)N3CCCC3)c2)ncc1I)c1cccs1 | MTT | 24 h | maximum tolerated concentration | ≤ 12.5 µM
CCOC(=O)CN1CCN(CCCOc2c3c(c(-c4ccc5c(c4)OCO5)c4cc(OC)c(OC)cc24)C(=O)OC3)CC1 | – | 24 h | CC50 | 63 ± 11.2 µM
Nc1nc(CCc2ccccc2)c(Br)c(=O)[nH]1 | cell morphology alteration | – | minimum cytotoxic concentration | > 100 µM
CCCCCCCCCCCCOS(=O)(=O)[O-].[Na+] | – | 50 µM, 24 h | cytotoxicity | not toxic
CN1CCN(CCCN2c3ccccc3Sc3ccc(C(F)(F)F)cc32)CC1 | cytotoxicity | 4.5 (unit not given) | IC50 | 30.6 µM
Nc1ncnc2c1ncn2C[C@H](O)CO | cell morphology alteration | – | minimum cytotoxic concentration | > 250 µM
Nc1ncnc2c([C@@H]3N[C@H](CO)[C@@H](O)[C@H]3O)c[nH]c12 | – | 25 µM | cell number | 5700 and 5930

A few entries again:
SMILES | assay | conditions | measurement | value
C#CCCCOc1c2c(c(-c3ccc4c(c3)OCO4)c3cc(OC)c(OC)cc13)C(=O)OC2 | – | 24 h | CC50 | 36.5 ± 7.13 µM
